Published values of several laboratories.
Each line is one published result; not all experiments were run side by side. ± gives the spread as reported.
PRT1: E3 ubiquitin-protein ligase PRT1 (PRT1, Arabidopsis thaliana, UniProt Q8LBL5)
Sequence of UniProt Q8LBL5 (whole entry, looked up): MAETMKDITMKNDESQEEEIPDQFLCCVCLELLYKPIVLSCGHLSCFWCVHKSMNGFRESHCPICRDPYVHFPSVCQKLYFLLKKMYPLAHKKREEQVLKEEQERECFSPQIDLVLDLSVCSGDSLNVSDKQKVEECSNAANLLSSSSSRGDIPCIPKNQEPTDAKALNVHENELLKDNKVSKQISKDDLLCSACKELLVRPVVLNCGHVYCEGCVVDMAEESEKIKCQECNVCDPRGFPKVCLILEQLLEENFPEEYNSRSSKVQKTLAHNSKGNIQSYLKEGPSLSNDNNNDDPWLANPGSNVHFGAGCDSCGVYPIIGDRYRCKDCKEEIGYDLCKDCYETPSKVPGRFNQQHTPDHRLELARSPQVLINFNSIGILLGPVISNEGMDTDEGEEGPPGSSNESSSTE
YES1 SH2 domain: Tyrosine-protein kinase Yes, SH2 domain (YES1, Homo sapiens, UniProt P07947)
Sequence of UniProt P07947 (whole entry, looked up): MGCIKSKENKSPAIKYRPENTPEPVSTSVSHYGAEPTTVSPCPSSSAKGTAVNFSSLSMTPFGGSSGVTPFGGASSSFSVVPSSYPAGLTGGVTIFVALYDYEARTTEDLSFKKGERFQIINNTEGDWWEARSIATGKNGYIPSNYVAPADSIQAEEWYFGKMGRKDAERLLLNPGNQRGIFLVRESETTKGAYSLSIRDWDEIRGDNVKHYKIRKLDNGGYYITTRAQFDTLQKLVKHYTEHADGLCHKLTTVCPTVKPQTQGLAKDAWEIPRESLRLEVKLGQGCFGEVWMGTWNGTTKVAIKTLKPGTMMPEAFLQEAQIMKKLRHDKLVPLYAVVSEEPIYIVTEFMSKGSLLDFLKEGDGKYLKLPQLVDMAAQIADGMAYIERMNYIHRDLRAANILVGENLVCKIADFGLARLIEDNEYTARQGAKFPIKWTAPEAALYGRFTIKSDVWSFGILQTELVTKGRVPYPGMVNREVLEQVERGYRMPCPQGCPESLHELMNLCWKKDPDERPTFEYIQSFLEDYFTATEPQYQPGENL
Sequence of UniProt P21553 (whole entry, unmodified, looked up): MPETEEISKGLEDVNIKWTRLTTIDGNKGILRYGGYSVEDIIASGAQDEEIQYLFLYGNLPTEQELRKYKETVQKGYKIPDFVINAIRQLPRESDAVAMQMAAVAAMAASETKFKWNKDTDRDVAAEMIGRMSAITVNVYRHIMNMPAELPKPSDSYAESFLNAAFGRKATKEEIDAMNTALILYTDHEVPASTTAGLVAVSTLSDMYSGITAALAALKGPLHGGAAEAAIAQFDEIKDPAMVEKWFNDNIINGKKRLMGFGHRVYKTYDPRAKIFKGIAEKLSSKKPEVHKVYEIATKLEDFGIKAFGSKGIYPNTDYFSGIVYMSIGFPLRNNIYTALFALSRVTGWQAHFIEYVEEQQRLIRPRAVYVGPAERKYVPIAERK
Sequence of UniProt Q06151 (whole entry, unmodified, looked up): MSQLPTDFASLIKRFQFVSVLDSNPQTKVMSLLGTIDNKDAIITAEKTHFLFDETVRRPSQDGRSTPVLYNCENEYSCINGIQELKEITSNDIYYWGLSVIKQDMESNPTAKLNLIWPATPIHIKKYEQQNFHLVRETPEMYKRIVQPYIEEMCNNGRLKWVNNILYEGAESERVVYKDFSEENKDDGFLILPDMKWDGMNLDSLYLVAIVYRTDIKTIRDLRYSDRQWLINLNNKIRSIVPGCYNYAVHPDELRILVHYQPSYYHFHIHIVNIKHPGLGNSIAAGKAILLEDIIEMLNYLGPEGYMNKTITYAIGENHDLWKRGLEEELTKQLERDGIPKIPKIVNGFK
Sequence of UniProt P78356 (whole entry, looked up): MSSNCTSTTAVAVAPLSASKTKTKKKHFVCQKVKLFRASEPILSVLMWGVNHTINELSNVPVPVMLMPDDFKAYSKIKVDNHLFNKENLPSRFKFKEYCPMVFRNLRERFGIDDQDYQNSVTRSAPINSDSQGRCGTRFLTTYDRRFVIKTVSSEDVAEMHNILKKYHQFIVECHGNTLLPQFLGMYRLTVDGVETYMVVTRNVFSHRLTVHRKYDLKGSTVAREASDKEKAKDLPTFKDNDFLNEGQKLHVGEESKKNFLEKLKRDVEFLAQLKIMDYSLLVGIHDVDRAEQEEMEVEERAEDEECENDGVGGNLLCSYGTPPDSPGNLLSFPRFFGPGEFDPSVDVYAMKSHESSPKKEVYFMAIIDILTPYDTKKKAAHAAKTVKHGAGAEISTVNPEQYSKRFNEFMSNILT
Sequence of UniProt P51451 (whole entry, looked up): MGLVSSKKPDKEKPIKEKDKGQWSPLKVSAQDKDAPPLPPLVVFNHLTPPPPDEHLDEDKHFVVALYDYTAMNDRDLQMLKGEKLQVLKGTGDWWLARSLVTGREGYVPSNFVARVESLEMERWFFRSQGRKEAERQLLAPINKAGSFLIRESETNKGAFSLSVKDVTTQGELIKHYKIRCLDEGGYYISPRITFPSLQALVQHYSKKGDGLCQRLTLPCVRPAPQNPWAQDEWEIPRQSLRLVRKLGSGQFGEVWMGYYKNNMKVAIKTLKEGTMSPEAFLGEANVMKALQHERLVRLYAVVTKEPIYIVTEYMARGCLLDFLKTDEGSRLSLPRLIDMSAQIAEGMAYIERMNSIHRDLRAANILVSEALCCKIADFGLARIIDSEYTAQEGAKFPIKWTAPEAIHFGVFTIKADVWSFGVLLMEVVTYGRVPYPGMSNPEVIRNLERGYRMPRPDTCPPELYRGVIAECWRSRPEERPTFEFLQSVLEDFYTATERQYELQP
Sequence of UniProt P03023 (whole entry, unmodified, looked up): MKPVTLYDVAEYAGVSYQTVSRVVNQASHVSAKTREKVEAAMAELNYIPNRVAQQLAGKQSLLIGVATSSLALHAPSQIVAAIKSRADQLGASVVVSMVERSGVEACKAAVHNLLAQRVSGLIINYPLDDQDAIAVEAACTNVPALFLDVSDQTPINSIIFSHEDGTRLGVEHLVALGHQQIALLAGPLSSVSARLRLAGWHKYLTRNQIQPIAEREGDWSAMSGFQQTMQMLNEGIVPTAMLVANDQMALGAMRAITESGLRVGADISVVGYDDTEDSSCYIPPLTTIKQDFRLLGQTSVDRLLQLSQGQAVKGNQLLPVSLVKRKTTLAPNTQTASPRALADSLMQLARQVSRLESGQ
Sequence of UniProt P35218 (whole entry, looked up): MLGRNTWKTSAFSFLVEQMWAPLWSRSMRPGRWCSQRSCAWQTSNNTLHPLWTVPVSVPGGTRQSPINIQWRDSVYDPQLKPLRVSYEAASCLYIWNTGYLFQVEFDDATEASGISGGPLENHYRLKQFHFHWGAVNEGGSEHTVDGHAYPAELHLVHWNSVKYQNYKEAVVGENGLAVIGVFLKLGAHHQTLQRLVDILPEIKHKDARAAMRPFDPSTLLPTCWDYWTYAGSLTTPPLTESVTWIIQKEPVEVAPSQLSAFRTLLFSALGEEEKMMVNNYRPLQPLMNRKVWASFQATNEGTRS
Sequence of UniProt Q08460 (whole entry, looked up): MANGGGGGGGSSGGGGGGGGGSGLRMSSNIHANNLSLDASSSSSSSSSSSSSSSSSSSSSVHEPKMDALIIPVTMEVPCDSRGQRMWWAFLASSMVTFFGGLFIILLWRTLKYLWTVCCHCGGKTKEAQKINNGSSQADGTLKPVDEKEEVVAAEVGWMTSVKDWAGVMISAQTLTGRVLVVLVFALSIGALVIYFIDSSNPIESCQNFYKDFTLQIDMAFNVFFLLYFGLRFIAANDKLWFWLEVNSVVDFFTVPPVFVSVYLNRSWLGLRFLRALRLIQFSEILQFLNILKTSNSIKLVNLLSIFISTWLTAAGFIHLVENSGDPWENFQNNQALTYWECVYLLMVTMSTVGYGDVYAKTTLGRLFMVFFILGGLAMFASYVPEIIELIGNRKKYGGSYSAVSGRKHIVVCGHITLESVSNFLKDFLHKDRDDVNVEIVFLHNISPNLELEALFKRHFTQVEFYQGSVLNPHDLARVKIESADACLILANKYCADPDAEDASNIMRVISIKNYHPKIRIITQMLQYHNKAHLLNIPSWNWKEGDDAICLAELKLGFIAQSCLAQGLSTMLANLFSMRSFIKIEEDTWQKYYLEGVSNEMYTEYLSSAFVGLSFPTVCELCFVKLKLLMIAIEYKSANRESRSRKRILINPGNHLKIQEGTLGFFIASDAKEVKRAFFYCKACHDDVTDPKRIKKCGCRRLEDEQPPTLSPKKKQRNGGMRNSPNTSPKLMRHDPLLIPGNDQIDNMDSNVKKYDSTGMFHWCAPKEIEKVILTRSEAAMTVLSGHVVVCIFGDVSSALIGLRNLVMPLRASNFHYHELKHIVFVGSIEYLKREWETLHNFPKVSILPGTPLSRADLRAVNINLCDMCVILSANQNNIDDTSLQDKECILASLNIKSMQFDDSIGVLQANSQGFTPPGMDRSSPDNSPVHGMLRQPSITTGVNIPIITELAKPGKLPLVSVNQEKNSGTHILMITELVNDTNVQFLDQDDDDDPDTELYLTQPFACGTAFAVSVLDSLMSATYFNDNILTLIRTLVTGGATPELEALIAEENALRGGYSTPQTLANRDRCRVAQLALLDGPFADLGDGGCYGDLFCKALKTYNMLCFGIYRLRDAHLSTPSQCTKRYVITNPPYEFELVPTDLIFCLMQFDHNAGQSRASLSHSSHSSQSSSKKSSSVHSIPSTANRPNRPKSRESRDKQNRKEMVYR
Sequence of UniProt Q9H6Y2 (whole entry, looked up): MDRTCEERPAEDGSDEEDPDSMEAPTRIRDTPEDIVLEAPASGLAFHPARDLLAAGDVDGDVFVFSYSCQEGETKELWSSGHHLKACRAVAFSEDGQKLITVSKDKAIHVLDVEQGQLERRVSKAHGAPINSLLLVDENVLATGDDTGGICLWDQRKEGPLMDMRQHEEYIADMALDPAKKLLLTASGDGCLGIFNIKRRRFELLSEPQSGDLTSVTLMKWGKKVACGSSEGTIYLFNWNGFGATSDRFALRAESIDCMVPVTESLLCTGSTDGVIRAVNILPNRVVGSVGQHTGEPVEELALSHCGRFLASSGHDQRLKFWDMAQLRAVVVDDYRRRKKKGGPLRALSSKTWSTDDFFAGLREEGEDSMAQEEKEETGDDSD

| SMILES | target | test | test system | setting | Kd [µM] |
| --- | --- | --- | --- | --- | --- |
| NCCCC[C@H](NC(=O)[C@@H](N)Cc1ccc(O)cc1)C(=O)N[C@@H](Cc1ccccc1)C(=O)O | PRT1 | ITC |  | pH 7.5, 25 °C | 6.86 ± 0.264 |
| CC[C@H](CO)Nc1nc(NCc2ccc(-c3ccccn3)cc2)c2ncn(C(C)C)c2n1 | Phosphatidylinositol 5-phosphate 4-kinase type-2 beta (PIP4K2B, Homo sapiens, UniProt P78356) | binding, competition affinity chromatography | SH-SY5Y cell extract |  | 12.6 |
| CC[C@H](C)[C@H](NC(=O)[C@H](Cc1ccc(OP(=O)(O)O)cc1)NC(=O)[C@H](CCC(=O)O)NC(=O)[C@H](Cc1c[nH]cn1)NC(=O)CNC(=O)[C@H](CC(=O)O)NC(=O)[C@H](CO)NC(=O)[C@H](CO)NC(=O)[C@@H](NC(=O)[C@H](CO)NC(=O)[C@H](CCC(=O)O)NC(=O)c1ccc2c(c1)C(=O)OC21c2ccc(N(C)C)cc2Oc2cc(N(C)C)ccc21)C(C)C)C(=O)N[C@@H](Cc1ccc(O)cc1)C(=O)N[C@H](C(=O)N[C@@H](CC(=O)O)C(=O)N1CCC[C@H]1C(=O)N[C@@H](CCSC)C(=O)N[C@@H](CCC(N)=O)C(=O)N[C@@H](CC(=O)O)C(=O)O)C(C)C | YES1 SH2 domain | binding |  |  | 1.26 |
| N[C@@H](CO)C(=O)O | spt (Sphingomonas paucimobilis, UniProt Q93UV0) | UV-visible titration |  |  | 1400 |
| CC[C@H](C)[C@H](NC(=O)[C@H](CC(=O)O)NC(=O)[C@H](C)NC(=O)[C@H](Cc1ccc(OP(=O)(O)O)cc1)NC(=O)[C@H](CCCCN)NC(=O)[C@@H](NC(=O)[C@H](CC(=O)O)NC(=O)CNC(=O)[C@H](CCCCN)NC(=O)[C@H](CCSC)NC(=O)[C@H](CC(=O)O)NC(=O)[C@H](CC(C)C)NC(=O)[C@H](CCSC)NC(=O)c1ccc2c(c1)C(=O)OC21c2ccc(N(C)C)cc2Oc2cc(N(C)C)ccc21)C(C)C)C(=O)N[C@@H](CCC(=O)O)C(=O)N[C@@H](CO)C(=O)N[C@@H](CO)C(=O)N[C@@H](CC(N)=O)C(=O)N[C@@H](CC(=O)O)C(=O)O | YES1 SH2 domain | binding |  |  | 1.48 |
| CO[C@@H]1[C@@H](OC(N)=O)[C@@H](O)[C@H](Oc2ccc3c(O)c(NC(=O)c4ccc(O)c(CC=C(C)C)c4)c(=O)oc3c2C)OC1(C)C | Multidrug resistance operon repressor (mexR, Pseudomonas aeruginosa, UniProt P52003, F17A/M14A/Q18A/R21A) |  |  |  | 238 |
| CC(C)S[C@@H]1O[C@H](CO)[C@H](O)[C@H](O)[C@H]1O | lacI (Escherichia coli, UniProt P03023, N125A) |  |  |  | 1.2 ± 0.2 |
| COc1ccc(NC(=O)C(C)N2CC=C(c3ccnc4[nH]ccc34)CC2)cc1OC (centres unmarked) | WD repeat-containing protein 55 (WDR55, Homo sapiens, UniProt Q9H6Y2) | binding, SPR |  | 20 °C | 15 |
| CNC(=O)c1cccn(Cc2ccc3c(c2)OC(F)(F)O3)c1=O | Fascin (FSCN1, Homo sapiens, UniProt Q16658) | binding |  |  | > 100 |
| C[C@H](NC(=O)[C@H](C)NC(=O)[C@@H](N)Cc1ccccc1)C(=O)O | PRT1 | ITC |  | pH 7.5, 25 °C | 6.43 ± 0.742 |
| CC[C@H](C)[C@H](NC(=O)[C@H](Cc1ccc(OP(=O)(O)O)cc1)NC(=O)[C@H](CCC(=O)O)NC(=O)[C@@H]1CCCN1C(=O)[C@@H](NC(=O)[C@@H]1CCCN1C(=O)[C@H](CC(C)C)NC(=O)[C@H](Cc1ccccc1)NC(=O)[C@@H](NC(=O)[C@H](CC(=O)O)NC(=O)[C@H](CC(=O)O)NC(=O)c1ccc2c(c1)C(=O)OC21c2ccc(N(C)C)cc2Oc2cc(N(C)C)ccc21)[C@@H](C)O)C(C)C)C(=O)N[C@@H](CC(N)=O)C(=O)N[C@@H](CCC(N)=O)C(=O)N[C@@H](CO)C(=O)N[C@H](C(=O)N1CCC[C@H]1C(=O)N[C@@H](CCCCN)C(=O)N[C@@H](CC(=O)O)C(=O)O)C(C)C | YES1 SH2 domain | binding |  |  | 0.337 |
| CC[C@H](C)[C@@H]1NC(=O)[C@@](C)(NC(=O)[C@H](CCCNC(=N)N)NC(=O)[C@H](CC(C)C)NC(=O)[C@@H](NC(=O)[C@H](CCC(N)=O)NC(=O)[C@H](CC(C)C)NC(=O)[C@H](CCC(N)=O)NC(=O)[C@@H]2CCCN2C(=O)[C@H](CCCNC(=N)N)NC(=O)[C@H](CCCNC(=N)N)NC(=O)[C@H](CCCNC(=N)N)NC(=O)[C@H](CCC(N)=O)NC(=O)[C@H](CCCNC(=N)N)NC(=O)[C@H](CCCNC(=N)N)NC(=O)[C@H](CCCCN)NC(=O)[C@H](CCCCN)NC(=O)[C@H](CCCNC(=N)N)NC(=O)CNC(C)=O)[C@@H](C)O)CCCC=CCCC[C@@](C)(C(=O)N[C@@H](Cc2ccc3ccccc3c2)C(=O)NCCC(=O)NCCC(N)=O)NC(=O)[C@H](CCCNC(=N)N)NC(=O)[C@H](CCC(N)=O)NC1=O | Catenin beta-1 (CTNNB1, Homo sapiens, UniProt P35222) | peptide binding, AlphaScreen |  |  | 0.025 |
| CC[C@H](C)[C@H](NC(=O)c1ccc2c(c1)C(=O)OC21c2ccc(N(C)C)cc2Oc2cc(N(C)C)ccc21)C(=O)N[C@@H](CCC(=O)O)C(=O)N[C@@H](CO)C(=O)N[C@@H](CO)C(=O)N[C@@H](CC(N)=O)C(=O)N[C@@H](Cc1ccc(O)cc1)C(=O)N[C@@H](CCSC)C(=O)N[C@@H](C)C(=O)N1CCC[C@H]1C(=O)N[C@@H](Cc1ccc(OP(=O)(O)O)cc1)C(=O)N[C@@H](CC(=O)O)C(=O)N[C@@H](CC(N)=O)C(=O)N[C@@H](Cc1ccc(O)cc1)C(=O)N[C@H](C(=O)N1CCC[C@H]1C(=O)N[C@@H](CO)C(=O)N[C@@H](C)C(=O)N[C@@H](CC(=O)O)C(=O)O)C(C)C | Tyrosine-protein kinase Blk, SH2 domain (BLK, Homo sapiens, UniProt P51451) | binding |  |  | 0.958 |
| CC[C@H](C)[C@H](NC(=O)[C@H](CCC(N)=O)NC(=O)[C@@H](NC(=O)[C@@H]1CCCN1C(=O)[C@@H](NC(=O)[C@H](CO)NC(=O)[C@H](Cc1ccccc1)NC(=O)[C@@H]1CCCN1C(=O)[C@H](CCC(N)=O)NC(=O)[C@@H](N)CCSC)[C@@H](C)CC)C(C)C)C(=O)N[C@H](C(=O)N[C@@H](CC(C)C)C(=O)N[C@@H](CCC(N)=O)C(=O)NCC(=O)N[C@@H](CO)C(=O)N[C@@H](CCCNC(=N)N)C(=O)N[C@@H](CCCNC(=N)N)C(=O)N[C@@H](CCCNC(=N)N)C(=O)N[C@@H](CCC(N)=O)C(=O)NCC(=O)N[C@@H](CCCNC(=N)N)C(N)=O)[C@@H](C)O | Kcnma1 (Mus musculus, UniProt Q08460) | ion current, blocker, inside-out patch clamp | Xenopus oocytes | +120 mV, with: 10 µM cytosolic Ca2+ | 0.27 |
| CSCC[C@H](NC(=O)[C@H](CC(=O)O)NC(=O)c1ccc2c(c1)C(=O)OC21c2ccc(N(C)C)cc2Oc2cc(N(C)C)ccc21)C(=O)N[C@@H](CO)C(=O)N[C@@H](CCCCN)C(=O)N[C@@H](CC(=O)O)C(=O)N[C@@H](CCC(=O)O)C(=O)N[C@@H](CO)C(=O)N[C@H](C(=O)N[C@@H](CC(=O)O)C(=O)N[C@@H](Cc1ccc(OP(=O)(O)O)cc1)C(=O)N[C@H](C(=O)N1CCC[C@H]1C(=O)N[C@@H](CCSC)C(=O)N[C@@H](CC(C)C)C(=O)N[C@@H](CC(=O)O)C(=O)N[C@@H](CCSC)C(=O)N[C@@H](CCCCN)C(=O)N[C@@H](CC(=O)O)C(=O)O)C(C)C)C(C)C | YES1 SH2 domain | binding |  |  | 0.664 |
| CC(=O)CCCNC(=O)CCNC(=O)[C@H](O)C(C)(C)COP(=O)(O)OP(=O)(O)OC[C@H]1O[C@@H](n2cnc3c(N)ncnc32)[C@H](O)[C@@H]1OP(=O)(O)O | gltA, with oxaloacetate (Thermoplasma acidophilum, UniProt P21553, W349Y) | fluorescence titration |  | 20 °C, with: oxaloacetate | 1.86 ± 0.09 |
| C[n+]1cn([C@@H]2O[C@H](COP(=O)(O)OP(=O)([O-])OP(=O)(O)OC[C@H]3O[C@@H](n4cnc5c(=O)[nH]c(N)nc54)[C@H](O)[C@@H]3O)[C@@H](O)[C@H]2O)c2nc(N)[nH]c(=O)c21 | m7GpppX diphosphatase, C-terminal domain (DCS1, Saccharomyces cerevisiae, UniProt Q06151, H268N) | binding, isothermal titration calorimetry |  | DcpS C-terminal domain dimer | 65 |
| CC[C@H](C)[C@H](NC(=O)CNC(=O)[C@H](CC(=O)O)NC(=O)[C@H](Cc1ccc(OP(=O)(O)O)cc1)NC(=O)[C@@H]1CCCN1C(=O)[C@H](CCCCN)NC(=O)[C@H](CO)NC(=O)CNC(=O)[C@H](Cc1ccccc1)NC(=O)[C@@H](NC(=O)[C@H](CCSC)NC(=O)[C@H](CC(C)C)NC(=O)[C@H](CCC(=O)O)NC(=O)c1ccc2c(c1)C(=O)OC21c2ccc(N(C)C)cc2Oc2cc(N(C)C)ccc21)[C@@H](C)O)C(=O)N1CCC[C@H]1C(=O)N[C@@H](C)C(=O)N[C@@H](CO)C(=O)N[C@@H](CCC(=O)O)C(=O)N[C@@H](CC(=O)O)C(=O)O | YES1 SH2 domain | binding |  |  | 0.328 |
| NS(=O)(=O)c1ccccc1 | Carbonic anhydrase 5A, mitochondrial (CA5A, Homo sapiens, UniProt P35218) | thermal shift |  | pH 7.0, 25 °C | 2.86 |
| Oc1ccc(/C=C/c2cc(O)cc(O)c2)cc1 | O-methyltransferase (Sorghum bicolor, UniProt A0A1B6PFV1, W279A) | isothermal titration calorimetry |  | APO | 33.1 |

Excerpt of the above:
| SMILES | target | test | test system | setting | Kd [µM] |
| --- | --- | --- | --- | --- | --- |
| CC[C@H](CO)Nc1nc(NCc2ccc(-c3ccccn3)cc2)c2ncn(C(C)C)c2n1 | Phosphatidylinositol 5-phosphate 4-kinase type-2 beta (PIP4K2B, Homo sapiens, UniProt P78356) | binding, competition affinity chromatography | SH-SY5Y cell extract |  | 12.6 |
| CC[C@H](C)[C@H](NC(=O)[C@H](Cc1ccc(OP(=O)(O)O)cc1)NC(=O)[C@H](CCC(=O)O)NC(=O)[C@H](Cc1c[nH]cn1)NC(=O)CNC(=O)[C@H](CC(=O)O)NC(=O)[C@H](CO)NC(=O)[C@H](CO)NC(=O)[C@@H](NC(=O)[C@H](CO)NC(=O)[C@H](CCC(=O)O)NC(=O)c1ccc2c(c1)C(=O)OC21c2ccc(N(C)C)cc2Oc2cc(N(C)C)ccc21)C(C)C)C(=O)N[C@@H](Cc1ccc(O)cc1)C(=O)N[C@H](C(=O)N[C@@H](CC(=O)O)C(=O)N1CCC[C@H]1C(=O)N[C@@H](CCSC)C(=O)N[C@@H](CCC(N)=O)C(=O)N[C@@H](CC(=O)O)C(=O)O)C(C)C | YES1 SH2 domain | binding |  |  | 1.26 |
| N[C@@H](CO)C(=O)O | spt (Sphingomonas paucimobilis, UniProt Q93UV0) | UV-visible titration |  |  | 1400 |
